{"data": "Results gathered from unrelated publications", "note": "A part holds a random share of what one study measured. Several values in a cell are separate wells, animals, samples, runs or records."}
{"data": "Series 1", "target": "Interferon regulatory factor 5, full length, phosphomimetic (IRF5, Homo sapiens, UniProt Q13568-2, residues 1-514, S451D/S453D/S456D/S462D)", "technique": "protein-binding microarray", "form": "double-stranded DNA, one strand shown", "medium": "in vitro", "concentration": "940 nM top", "setting": "60-bp whole probe", "together with": "salmon DNA 0.4 mg/ml", "baseline": "random background probes", "direction": "higher = stronger binding"}
{"Sequence": "GCCTAGCACTCTGTTTTTGCTTTCTTTTTGTGCTAGGTCTTGATTCGCTTGACGCTGCTG", "fitted relative affinity": "2.11 z-score"}
{"Sequence": "GCCTAGCACGTGGCTCACACCTGTCATCCCGTGCTAGTCTTGATTCGCTTGACGCTGCTG", "fitted relative affinity": "-0.523 z-score"}
{"Sequence": "GCCTAGCACTTAGGTATGGGTTTCGGTTAGTGCTAGGTCTTGATTCGCTTGACGCTGCTG", "fitted relative affinity": "6.7 z-score"}
{"data": "Series 2", "target": "Histone acetyltransferase KAT6A, both winged helices, GST fusion (KAT6A, Homo sapiens, UniProt Q92794, residues 1-181)", "technique": "protein binding microarray", "form": "double-stranded DNA, one strand shown", "medium": "in vitro", "concentration": "not given", "setting": "8-mer, flanks averaged, mean of 2 arrays, mostly near background", "baseline": "not given", "direction": "higher = stronger binding", "Construct (chain)": "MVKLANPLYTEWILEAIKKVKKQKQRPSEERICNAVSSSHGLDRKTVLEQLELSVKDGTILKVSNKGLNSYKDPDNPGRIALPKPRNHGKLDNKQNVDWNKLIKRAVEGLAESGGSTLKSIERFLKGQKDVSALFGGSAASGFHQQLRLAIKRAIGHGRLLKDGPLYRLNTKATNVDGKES"}
{"Sequence": "CAACATGG", "E-score": -0.142}
{"Sequence": "GACACATA", "E-score": -0.0961}
{"Sequence": "GCAGCTAA", "E-score": -0.104}
{"Sequence": "GTTATGGA", "E-score": -0.0743}
{"Sequence": "GGTCAGCA", "E-score": -0.0699}
{"Sequence": "TATTATAA", "E-score": -0.0811}
{"Sequence": "ATGACAAT", "E-score": -0.158}
{"data": "Series 3", "target": "RNA binding protein fox-1 homolog 2, RRM domain, GST-SBP tag (RBFOX2, Homo sapiens, UniProt O43251-10, residues 100-194)", "technique": "RNA Bind-n-Seq", "form": "RNA", "medium": "in vitro", "concentration": "365 nM", "setting": "natural RNA segment, single round, ends assumed", "baseline": "no-protein control", "direction": "higher = stronger binding", "Target sequence (chain)": "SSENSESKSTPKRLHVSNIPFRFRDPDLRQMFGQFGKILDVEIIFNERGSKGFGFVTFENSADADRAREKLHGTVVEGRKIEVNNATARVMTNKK"}
{"Sequence": "GGGAGUUCUACAGUCCGACGAUCGUCUCCCCCACACACACCUGUCACCUCUCUACAGAGACCCUGAGGGUGCGGUGAGAUGGAGGCCAUGAUGCCUUGUGUGACUGUGAGUGUGUGUGUGUAUGCAUGAGAGAUGGAAUUCUCGGGUGCCAA", "RBNS enrichment (R)": 4.37}
{"Sequence": "GGGAGUUCUACAGUCCGACGAUCUUUUUAUGCUGCUUUCUUACAUAGUUUCUCUUCAUUUUCACUUAACUCUGAAGACAACCAAAAGAACGGAUCAAUUAAAAACUGAUUCCACUUAUAACCAUUGUAUGCUCUGGAAUUCUCGGGUGCCAA", "RBNS enrichment (R)": 0.321}
{"Sequence": "GGGAGUUCUACAGUCCGACGAUCUCCCCCAAGACGAAUAUCCAGAAAUCAAUUUUGUGGGGCUCCUAAUUGGACCCAGGGGGAACACCCUGAAGAACAUUGAGAAGGAAUGCAACGCCAAGAUCAUGAUUCGGUGGAAUUCUCGGGUGCCAA", "RBNS enrichment (R)": 0.602}
{"Sequence": "GGGAGUUCUACAGUCCGACGAUCCCUGCACCUCCGCGGGCUGACUGGGCCACAGCCCCGAUGAUUCUUAACACAGCCUUCCUUCUGCUCCCACCCCAGAAAUCACUGUGAAAUUUCAUGAUUGGCUUAAAGUGUGGAAUUCUCGGGUGCCAA", "RBNS enrichment (R)": 0.968}
{"data": "Single results of other studies"}
{"Substance": "PhoQ, residues 284 288 289 292 302 303 ASSHFY", "target": "PhoP, residues 12 14 15 18 19 LWHSL (Escherichia coli, UniProt P23836)", "test": "Sort-seq, measured: YFP reporter", "test system": "E. coli", "conditions": "PhoQ-PhoP variant library, together with: 10 µM Mg2+", "how to read": "baseline: high Mg2+ state, higher = stronger signaling", "endpoint": "fold induction", "result": "15.2 and 28.4"}
{"note": "For quick reference, copied from above (series 2):"}
{"Sequence": "GCAGCTAA", "E-score": -0.104}
{"Sequence": "GTTATGGA", "E-score": -0.0743}
